Measurements of several laboratories.
A part holds a random share of what one study measured.

Set 1
Target: RNA binding protein fox-1 homolog 2, RRM domain, GST-SBP tag (RBFOX2, Homo sapiens, UniProt O43251-10, residues 100-194)
Method: RNA Bind-n-Seq
Form: RNA
Matrix: in vitro
Tested at: 365 nM
Notes: natural RNA segment, single round, ends assumed
Relative to: no-protein control
Reading: higher = stronger binding
Shared flanks, not repeated: GGGAGUUCUACAGUCCGACGAUC … UGGAAUUCUCGGGUGCCAA
Oligonucleotide	RBNS enrichment (R)
AGUUUGUAACUUUUGGAACCGGAGAGCCCUGUUUCUUUGGCUGGGCGGUUAUGGCAGCUGAAGGCAAACUGUGAGGUUUGAGUGACGAGGUUCUCAUACCAGCACAUCAC	0.378
UCUUGGCGUUUUGCAACCCAUGCUGGCCUCCCUCCUGCAGAUGGCAUAGGAGUCCGUCUGUCUUUGGACUGUCUCCUCUGCUGUUGUUCCUGCUCUCUCCGUUUCUGUCU	0.786
CUGCAUAAUUCUGAAGUUAUAUUUCCUAUACCAUUUCCGUAAUUCUUAUUCCAUAUUAGAAAACUUUGUUAGGCCAAAGACAAAUAGUAGGCAAGAUGGCACAGGGCAUG	0.7
GCCCAACAUGACAAUUCUGGCUAUGAAAAUUAUGUUUAAACUGUGUAUGAUCUAUUUUAUGUGCUCUAUGUUCCCAUUUGUUUGUUUGGUCUGGACAGUGGUUCUGGAAU	1.56
CUCCUAACUAGCAUGCAACCCUUGGCUUGUUUACUAACCCAAAAGGGCUAAGGCACAGUAUUUGAAACCAUUAAAUGUGUUCUUUGGAGAAGUCUGGUUAACAUCCAUCA	8.05
CAGGAAAAACCCAAAGAAAGCGGCCAAAUGUUGCGACAAUUAAGAAGACAGCACUCACUGGGAUGAAGCAGGGAGCAGGGCUGCCGCCACCCACAUUCCACUCUAGUUGG	0.369
CUUUGAGAUCAGCAGGGGGCUCGGAUCCAGCCCUAAGAGACUUGGGUGGACCCCCAUGAGUCAAUGGAGGGCAGACGGCUCUCCCCCUUAAAGCUGUUCCCUGGGGGAUG	0.498
UGUUCAAGUAUUAAUAUUGUUACAAGGGAAAAGUAAUAUUAGGAUUGUUUGCUCUCCUGUCUGCCCCAGCUGUUUCUGGCAUAUUAUUUUUUGUUAGCUGAGACAUUGAC	0.779

Set 2
Target: Replicase polyprotein 1ab, main protease (rep, Severe acute respiratory syndrome coronavirus 2, UniProt P0DTD1)
Read-out: enzyme activity
Mode: inhibitor
Tested at: 20 µM
Notes: primary screen
SMILES	inhibition
Clc1ccc(C(OCCN2CCCCC2)c2ccccc2)cc1 (centres unmarked)	113%
COc1ccc2nc(S)[nH]c2c1	97.9%
CCCCCCCCN=c1ccn(CCCCCCCCCCn2ccc(=NCCCCCCCC)cc2)cc1	89.8%
S=C=NCc1ccccc1	68.7%
CCCCCCCCCCCCCCCC[n+]1ccn(Cc2ccccc2)c1C	83.4%

Set 3
Target: Sal-like protein 4, full length isoform A (SALL4, Homo sapiens, UniProt Q9UJQ4, residues 1-1053)
UniProt Q9UJQ4, sequence (whole entry, looked up): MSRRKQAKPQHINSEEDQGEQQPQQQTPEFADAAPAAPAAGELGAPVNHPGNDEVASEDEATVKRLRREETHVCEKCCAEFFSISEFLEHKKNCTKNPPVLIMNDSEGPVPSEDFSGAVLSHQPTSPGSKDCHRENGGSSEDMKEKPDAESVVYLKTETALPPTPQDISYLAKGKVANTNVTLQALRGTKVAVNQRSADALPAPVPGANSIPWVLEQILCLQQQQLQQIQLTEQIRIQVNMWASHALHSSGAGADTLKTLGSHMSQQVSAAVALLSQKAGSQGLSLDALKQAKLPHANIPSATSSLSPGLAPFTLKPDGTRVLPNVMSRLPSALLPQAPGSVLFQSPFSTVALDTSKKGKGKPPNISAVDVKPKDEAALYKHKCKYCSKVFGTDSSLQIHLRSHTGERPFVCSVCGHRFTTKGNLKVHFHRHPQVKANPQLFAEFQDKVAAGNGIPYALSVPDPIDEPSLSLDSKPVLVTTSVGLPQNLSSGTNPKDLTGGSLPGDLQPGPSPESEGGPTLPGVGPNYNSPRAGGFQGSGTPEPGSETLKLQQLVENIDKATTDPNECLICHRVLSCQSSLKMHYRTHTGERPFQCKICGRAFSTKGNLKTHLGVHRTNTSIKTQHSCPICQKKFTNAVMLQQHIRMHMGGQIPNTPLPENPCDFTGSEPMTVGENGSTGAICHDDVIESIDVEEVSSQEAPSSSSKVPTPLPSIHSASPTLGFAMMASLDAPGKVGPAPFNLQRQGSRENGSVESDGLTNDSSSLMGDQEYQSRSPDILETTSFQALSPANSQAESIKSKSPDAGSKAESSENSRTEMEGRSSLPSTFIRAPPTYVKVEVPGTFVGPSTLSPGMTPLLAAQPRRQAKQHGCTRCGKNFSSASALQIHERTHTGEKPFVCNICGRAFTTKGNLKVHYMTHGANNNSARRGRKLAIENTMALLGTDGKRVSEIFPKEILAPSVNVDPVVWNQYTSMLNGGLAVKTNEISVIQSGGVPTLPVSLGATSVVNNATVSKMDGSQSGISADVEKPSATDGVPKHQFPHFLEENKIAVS
Method: universal PBM
Form: double-stranded DNA, one strand shown
Matrix: in vitro
Tested at: 600 nM
Notes: 8-mer, flanks averaged, mean of replicates
Reading: higher = stronger binding
Oligonucleotide	E-score
CTTTTGAA	0.079
CTGAGTAA	0.123
AACCTTGT	-0.0506
CGAAACCC	-0.305
GGCGTACA	-0.226
TACCGCAA	0.0813
TCAGTGCA	-0.0159
AACGAGCC	-0.157

Set 4
Target: Replicase polyprotein 1ab, nsp13 helicase (rep, Severe acute respiratory syndrome coronavirus 2, UniProt P0DTD1)
Mode: inhibitor
Tested at: 20 µM
Compound	inhibition [%]
CC(=O)OCC1=C(C(=O)O)N2C(=O)[C@@H](NC(=O)Cc3cccs3)[C@H]2SC1	8.15
COc1cc(N)c(Cl)cc1C(=O)OCCCN1CCCCC1	-1.03
O=C(O)C[C@H]1CC[C@H](c2ccc(-c3ccc(Nc4ccc(C(F)(F)F)nc4)cn3)cc2)CC1	5.38
O[C@@H]1CCCC[C@H]1N1CCC(c2ccccc2)CC1 (racemic)	-2.09
Cc1cc(C)c2nc(-c3ccccn3)cc(C(=O)Nc3ccc(S(=O)(=O)Nc4onc(C)c4C)cc3)c2c1	40.8
COc1ccccc1N1CCN(CCCNc2cc(=O)n(C)c(=O)n2C)CC1	2.17
CCCc1c(OCCCCc2nnn[nH]2)ccc(C(C)=O)c1O	-0.22
CCCC[C@H](NC(=O)[C@@H]1[C@@H]2[C@H](CN1C(=O)[C@@H](NC(=O)NC1(CS(=O)(=O)C(C)(C)C)CCCCC1)C(C)(C)C)C2(C)C)C(=O)C(=O)NC1CC1	-0.22
CC(C)n1cnc2c(NCCc3ccc(O)cc3)nc(-c3csc4ccccc34)nc21	4.98
CC(CCc1ccc(O)cc1)NCCc1ccc(O)c(O)c1 (centres unmarked)	-0.3
COCCNC(=O)COc1ccc(OCCNC[C@H](O)COc2ccccc2)cc1	-0.57
O=C(O)CCCO	2.79
CC(C)(C)NC[C@H](O)c1ccc(O)c(CO)c1	-1.72
C[C@H]1[C@H](C)CC[C@]2(C(=O)O)CC[C@]3(C)C(=CC[C@@H]4[C@@]5(C)C[C@@H](O)[C@H](O)C(C)(C)[C@@H]5CC[C@]43C)[C@H]12	-1.29
Cc1ccc(-c2cn3c4c(sc3n2)CCCC4)cc1	6.24
C=C[C@H]1CN2CC[C@H]1C[C@H]2[C@H](O)c1ccnc2ccccc12	-21.3
CCCc1ncc(C[n+]2ccccc2C)c(N)n1	0.3
Fc1ccc(-c2c3cccc(C(F)(F)F)c3nn2Cc2ccc(F)cc2Cl)cc1	33.5
COc1cc2c(cc1OC)CN(C(=O)[C@@H](NCc1ccncc1)C(C)(C)C)CC2	-1.12
CCC(=O)O[C@@H](O[P@](=O)(CCCCc1ccccc1)CC(=O)N1C[C@H](C2CCCCC2)C[C@H]1C(=O)O)C(C)C	13.3
Cc1ccc(C(=O)C(C)CN2CCCCC2)cc1 (centres unmarked)	9
NC(=O)[C@@H](CC1CC1)[C@@H](CCC(F)(F)F)C(=O)N[C@H]1N=C(c2ccccc2)c2cccc(F)c2NC1=O	3.91
NC(=O)CN1CC[C@@H](NC(=O)[C@@H]2CCCN2)C1=O	5.24
CC[C@H](Nc1ncnc2[nH]cnc12)c1nc2cccc(F)c2c(=O)n1-c1ccccc1	0.89

Set 5
Target: Interferon regulatory factor 7, full length, phosphomimetic (IRF7, Homo sapiens, UniProt Q92985, residues 1-503, S471D/S472D/S475D/S476D/S477D/S483D/S484D/S487D)
Method: protein-binding microarray
Form: double-stranded DNA, one strand shown
Matrix: in vitro
Tested at: 2200 nM top
Notes: 60-bp whole probe
Added: salmon DNA 0.4 mg/ml
Relative to: random background probes
Reading: higher = stronger binding
Shared flanks, not repeated: GCCTAGCAC … GTCTTGATTCGCTTGACGCTGCTG
Target sequence (chain): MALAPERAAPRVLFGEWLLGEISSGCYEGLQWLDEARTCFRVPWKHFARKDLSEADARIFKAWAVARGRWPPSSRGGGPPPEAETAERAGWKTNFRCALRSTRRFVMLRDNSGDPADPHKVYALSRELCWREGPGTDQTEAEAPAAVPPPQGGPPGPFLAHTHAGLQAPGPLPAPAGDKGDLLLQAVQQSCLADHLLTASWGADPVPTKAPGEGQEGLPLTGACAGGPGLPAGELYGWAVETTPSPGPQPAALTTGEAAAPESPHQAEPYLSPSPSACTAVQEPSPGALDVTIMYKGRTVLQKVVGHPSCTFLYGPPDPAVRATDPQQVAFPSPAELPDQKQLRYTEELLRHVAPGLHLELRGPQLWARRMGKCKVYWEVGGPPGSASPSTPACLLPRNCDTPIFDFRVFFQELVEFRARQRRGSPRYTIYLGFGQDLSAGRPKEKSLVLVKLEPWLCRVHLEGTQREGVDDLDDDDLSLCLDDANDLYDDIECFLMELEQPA
Oligonucleotide	fitted relative affinity [z-score]
TCCCCTCTCTTTCCAACTCTGTGCTAG	2.46
GATTTTTTAGCTTGCAAAAAGTGCTAG	-0.407
GACGGACTGGACTTTCGAGACGTGCTA	1.7
AGAGTGCTCATGCTTCTTAGGGTGCTA	-0.402
GGTCCCACCTCTTGGTGGGAGTGCTAG	-0.718
GACGGACTGGCGTTTCGGGACGTGCTA	0.0814
TTAGATTTCAGTTCCTATTAGTGCTAG	2.1
GACGATTTGAGTTCCGAGACGTGCTAG	0.4

For quick reference, copied from above (set 1):
Oligonucleotide	RBNS enrichment (R)
CUGCAUAAUUCUGAAGUUAUAUUUCCUAUACCAUUUCCGUAAUUCUUAUUCCAUAUUAGAAAACUUUGUUAGGCCAAAGACAAAUAGUAGGCAAGAUGGCACAGGGCAUG	0.7
CAGGAAAAACCCAAAGAAAGCGGCCAAAUGUUGCGACAAUUAAGAAGACAGCACUCACUGGGAUGAAGCAGGGAGCAGGGCUGCCGCCACCCACAUUCCACUCUAGUUGG	0.369
UCUUGGCGUUUUGCAACCCAUGCUGGCCUCCCUCCUGCAGAUGGCAUAGGAGUCCGUCUGUCUUUGGACUGUCUCCUCUGCUGUUGUUCCUGCUCUCUCCGUUUCUGUCU	0.786
CUCCUAACUAGCAUGCAACCCUUGGCUUGUUUACUAACCCAAAAGGGCUAAGGCACAGUAUUUGAAACCAUUAAAUGUGUUCUUUGGAGAAGUCUGGUUAACAUCCAUCA	8.05
GCCCAACAUGACAAUUCUGGCUAUGAAAAUUAUGUUUAAACUGUGUAUGAUCUAUUUUAUGUGCUCUAUGUUCCCAUUUGUUUGUUUGGUCUGGACAGUGGUUCUGGAAU	1.56
CUUUGAGAUCAGCAGGGGGCUCGGAUCCAGCCCUAAGAGACUUGGGUGGACCCCCAUGAGUCAAUGGAGGGCAGACGGCUCUCCCCCUUAAAGCUGUUCCCUGGGGGAUG	0.498
UGUUCAAGUAUUAAUAUUGUUACAAGGGAAAAGUAAUAUUAGGAUUGUUUGCUCUCCUGUCUGCCCCAGCUGUUUCUGGCAUAUUAUUUUUUGUUAGCUGAGACAUUGAC	0.779
